Measurements from different studies.
Numbered parts are unrelated; each lists some results of a single study.
UniProt P0C264, sequence (whole entry, looked up): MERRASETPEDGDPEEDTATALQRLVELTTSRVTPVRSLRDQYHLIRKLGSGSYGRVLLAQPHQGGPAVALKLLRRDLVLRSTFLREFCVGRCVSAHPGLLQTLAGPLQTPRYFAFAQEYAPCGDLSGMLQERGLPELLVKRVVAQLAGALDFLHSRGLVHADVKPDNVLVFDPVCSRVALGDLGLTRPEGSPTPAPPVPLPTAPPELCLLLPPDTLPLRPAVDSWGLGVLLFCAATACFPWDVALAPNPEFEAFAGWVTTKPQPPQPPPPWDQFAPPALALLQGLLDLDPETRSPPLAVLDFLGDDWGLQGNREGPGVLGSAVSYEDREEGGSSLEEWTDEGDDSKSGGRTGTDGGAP
UniProt Q96SB4, sequence (whole entry, looked up): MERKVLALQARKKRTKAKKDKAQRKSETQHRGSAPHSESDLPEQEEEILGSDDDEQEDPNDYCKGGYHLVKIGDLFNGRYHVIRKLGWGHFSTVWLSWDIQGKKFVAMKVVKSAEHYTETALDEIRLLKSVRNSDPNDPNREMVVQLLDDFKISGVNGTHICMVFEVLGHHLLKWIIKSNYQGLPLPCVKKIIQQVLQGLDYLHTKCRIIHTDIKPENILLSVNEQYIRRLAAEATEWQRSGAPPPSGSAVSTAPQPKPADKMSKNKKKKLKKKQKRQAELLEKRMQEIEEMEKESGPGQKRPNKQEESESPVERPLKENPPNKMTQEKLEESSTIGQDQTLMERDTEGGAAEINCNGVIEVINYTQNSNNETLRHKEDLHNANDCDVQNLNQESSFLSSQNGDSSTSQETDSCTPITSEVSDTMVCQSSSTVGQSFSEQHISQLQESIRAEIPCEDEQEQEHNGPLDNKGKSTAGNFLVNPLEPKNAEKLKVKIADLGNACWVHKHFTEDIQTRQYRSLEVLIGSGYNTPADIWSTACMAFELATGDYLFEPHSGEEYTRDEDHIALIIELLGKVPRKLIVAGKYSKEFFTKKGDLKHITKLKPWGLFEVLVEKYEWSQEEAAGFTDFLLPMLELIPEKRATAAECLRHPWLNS
UniProt Q14680, sequence (whole entry, looked up): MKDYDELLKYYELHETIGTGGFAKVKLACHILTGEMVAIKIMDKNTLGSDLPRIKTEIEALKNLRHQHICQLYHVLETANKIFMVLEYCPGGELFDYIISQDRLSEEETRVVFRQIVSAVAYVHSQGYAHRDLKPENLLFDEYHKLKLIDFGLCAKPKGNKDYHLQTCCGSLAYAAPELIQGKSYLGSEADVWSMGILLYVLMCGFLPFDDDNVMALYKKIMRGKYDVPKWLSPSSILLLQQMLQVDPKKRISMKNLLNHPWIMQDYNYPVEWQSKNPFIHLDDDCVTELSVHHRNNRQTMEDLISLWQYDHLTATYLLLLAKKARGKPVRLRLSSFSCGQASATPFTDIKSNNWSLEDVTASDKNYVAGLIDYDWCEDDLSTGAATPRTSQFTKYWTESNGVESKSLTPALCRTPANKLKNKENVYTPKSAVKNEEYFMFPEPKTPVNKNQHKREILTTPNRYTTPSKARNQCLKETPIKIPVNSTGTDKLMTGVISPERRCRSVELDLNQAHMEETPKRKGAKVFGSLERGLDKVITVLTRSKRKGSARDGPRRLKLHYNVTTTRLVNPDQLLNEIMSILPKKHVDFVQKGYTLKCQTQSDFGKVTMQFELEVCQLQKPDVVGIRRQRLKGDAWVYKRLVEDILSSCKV
UniProt P14616, sequence (whole entry, looked up): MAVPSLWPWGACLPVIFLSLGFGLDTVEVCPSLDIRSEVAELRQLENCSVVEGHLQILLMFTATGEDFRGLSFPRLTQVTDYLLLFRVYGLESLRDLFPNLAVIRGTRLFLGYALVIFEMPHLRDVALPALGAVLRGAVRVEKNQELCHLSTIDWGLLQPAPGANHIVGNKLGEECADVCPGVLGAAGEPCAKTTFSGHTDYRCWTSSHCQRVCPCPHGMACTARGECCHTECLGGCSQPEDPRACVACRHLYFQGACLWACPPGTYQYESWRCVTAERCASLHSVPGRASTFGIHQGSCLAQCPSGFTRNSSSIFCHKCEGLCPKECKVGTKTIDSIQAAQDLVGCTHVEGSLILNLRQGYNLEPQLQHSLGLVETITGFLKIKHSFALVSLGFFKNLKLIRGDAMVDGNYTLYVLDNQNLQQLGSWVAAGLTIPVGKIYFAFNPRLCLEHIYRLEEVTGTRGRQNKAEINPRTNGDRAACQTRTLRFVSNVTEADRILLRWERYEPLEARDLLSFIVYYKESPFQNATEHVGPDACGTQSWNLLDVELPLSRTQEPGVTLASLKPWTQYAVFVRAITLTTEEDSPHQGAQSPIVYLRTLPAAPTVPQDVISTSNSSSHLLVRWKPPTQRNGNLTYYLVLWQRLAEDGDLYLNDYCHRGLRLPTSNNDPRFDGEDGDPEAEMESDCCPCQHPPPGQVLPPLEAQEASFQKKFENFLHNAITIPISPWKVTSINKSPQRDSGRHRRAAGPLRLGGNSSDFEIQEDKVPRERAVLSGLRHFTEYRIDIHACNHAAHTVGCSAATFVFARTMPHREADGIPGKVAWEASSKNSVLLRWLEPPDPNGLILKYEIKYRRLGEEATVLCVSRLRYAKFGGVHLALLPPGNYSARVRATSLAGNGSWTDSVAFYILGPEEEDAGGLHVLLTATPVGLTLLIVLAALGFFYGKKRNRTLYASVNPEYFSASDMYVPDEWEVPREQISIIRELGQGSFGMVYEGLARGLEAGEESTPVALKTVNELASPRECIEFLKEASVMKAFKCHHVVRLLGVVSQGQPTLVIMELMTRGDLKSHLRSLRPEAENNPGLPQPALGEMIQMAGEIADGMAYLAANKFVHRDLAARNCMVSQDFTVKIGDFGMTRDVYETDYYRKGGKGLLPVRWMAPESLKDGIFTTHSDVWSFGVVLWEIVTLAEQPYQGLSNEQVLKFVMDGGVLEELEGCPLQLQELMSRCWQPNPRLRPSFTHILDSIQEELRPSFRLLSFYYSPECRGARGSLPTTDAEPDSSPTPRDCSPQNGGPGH
UniProt Q99755, sequence (whole entry, looked up): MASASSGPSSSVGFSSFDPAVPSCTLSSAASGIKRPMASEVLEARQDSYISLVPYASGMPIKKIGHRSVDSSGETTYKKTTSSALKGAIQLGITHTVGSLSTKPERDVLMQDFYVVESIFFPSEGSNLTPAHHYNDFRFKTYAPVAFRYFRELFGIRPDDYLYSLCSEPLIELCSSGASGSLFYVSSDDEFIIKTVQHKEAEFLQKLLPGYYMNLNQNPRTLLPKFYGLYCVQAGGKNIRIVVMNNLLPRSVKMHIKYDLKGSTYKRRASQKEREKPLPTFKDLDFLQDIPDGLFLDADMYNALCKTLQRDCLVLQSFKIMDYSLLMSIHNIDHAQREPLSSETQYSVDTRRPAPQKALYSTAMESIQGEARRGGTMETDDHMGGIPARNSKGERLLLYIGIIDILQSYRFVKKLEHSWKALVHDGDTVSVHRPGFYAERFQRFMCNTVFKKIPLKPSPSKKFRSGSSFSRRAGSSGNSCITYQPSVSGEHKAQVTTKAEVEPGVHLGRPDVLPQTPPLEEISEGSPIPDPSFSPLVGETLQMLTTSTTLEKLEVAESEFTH
UniProt P06241, sequence (whole entry, looked up): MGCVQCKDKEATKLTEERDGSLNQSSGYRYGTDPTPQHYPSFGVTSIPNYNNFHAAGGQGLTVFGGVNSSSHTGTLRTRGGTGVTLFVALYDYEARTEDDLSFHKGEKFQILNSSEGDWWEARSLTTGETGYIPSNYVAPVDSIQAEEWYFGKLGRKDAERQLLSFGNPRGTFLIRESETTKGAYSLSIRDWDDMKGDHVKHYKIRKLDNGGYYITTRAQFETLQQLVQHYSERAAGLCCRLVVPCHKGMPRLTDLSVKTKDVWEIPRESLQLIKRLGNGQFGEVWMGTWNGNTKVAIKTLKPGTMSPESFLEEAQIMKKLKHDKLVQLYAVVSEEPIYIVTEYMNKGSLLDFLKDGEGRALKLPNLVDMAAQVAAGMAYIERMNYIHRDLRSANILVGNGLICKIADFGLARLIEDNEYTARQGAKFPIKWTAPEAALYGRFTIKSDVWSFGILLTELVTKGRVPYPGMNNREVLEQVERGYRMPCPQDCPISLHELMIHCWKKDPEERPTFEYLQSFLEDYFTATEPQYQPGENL
UniProt Q9NY57, sequence (whole entry, looked up): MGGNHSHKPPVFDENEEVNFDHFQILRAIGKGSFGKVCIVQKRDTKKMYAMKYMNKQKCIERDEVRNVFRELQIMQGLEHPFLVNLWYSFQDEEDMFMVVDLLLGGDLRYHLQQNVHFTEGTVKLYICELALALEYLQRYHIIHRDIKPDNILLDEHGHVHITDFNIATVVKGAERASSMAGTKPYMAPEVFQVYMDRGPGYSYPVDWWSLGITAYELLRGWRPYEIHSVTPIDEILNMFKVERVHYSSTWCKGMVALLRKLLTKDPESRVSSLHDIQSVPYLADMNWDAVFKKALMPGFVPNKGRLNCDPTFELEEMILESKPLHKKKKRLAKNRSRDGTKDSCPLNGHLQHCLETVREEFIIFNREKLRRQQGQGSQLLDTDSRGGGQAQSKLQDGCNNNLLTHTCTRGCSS

Block 1 — mode: inhibitor; tested at: 10 µM; relative to: control; measurement: remaining activity
Target: Diamine acetyltransferase 1 (Homo sapiens, UniProt P21673)
Residues (P21673 1-171): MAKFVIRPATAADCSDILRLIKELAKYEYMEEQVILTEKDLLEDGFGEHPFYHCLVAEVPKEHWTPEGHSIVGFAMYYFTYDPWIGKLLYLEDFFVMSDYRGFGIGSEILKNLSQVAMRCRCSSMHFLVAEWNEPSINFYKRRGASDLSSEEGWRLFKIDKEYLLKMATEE
Structure (SMILES) = CCCCCCCCC/C=C/C(=O)CCc1ccc(O)c(OC)c1; result = 90.3%
Structure (SMILES) = OC1[C@@H](O)[C@H](O)OC[C@@H]1O (stereo in doubt); result = 86.3%
Structure (SMILES) = CC(=O)O[C@H]1C(=O)[C@@]2(C)[C@H]([C@H](OC(=O)c3ccccc3)[C@]3(O)C[C@H](OC(=O)[C@H](O)[C@@H](NC(=O)c4ccccc4)c4ccccc4)C(C)=C1C3(C)C)[C@]1(OC(C)=O)CO[C@@H]1C[C@@H]2O; result = 109%
Structure (SMILES) = CC(C)(O)[C@@H]1CC[C@](C)([C@H]2[C@@H](O)C[C@@]3(C)[C@@H]4C[C@H](O)[C@H]5C(C)(C)[C@@H](O)CC[C@@]56C[C@@]46CC[C@]23C)O1; result = 85.5%
Structure (SMILES) = CC(=O)O[C@H]1CC[C@]2(C)C3=C(CC[C@H]2C1(C)C)[C@]1(C)CC[C@H]([C@@H](CCC=C(C)C)C(=O)O)[C@@]1(C)CC3; result = 113%
Structure (SMILES) = C=C(CC[C@@H](C(=O)O)[C@H]1[C@H](O)C[C@@]2(C)C3=CC[C@@H](C(=C)C)[C@](C)(CCC(=O)O)C3=CC[C@]12C)C(C)C; result = 117%
Structure (SMILES) = COc1cc2c(=O)c(-c3ccc(O)cc3)coc2cc1O; result = 85.3%
Structure (SMILES) = C/C(=C\C(=O)CC(C)C(=O)O)[C@H]1CC(=O)[C@@]2(C)C3=C(C(=O)C[C@]12C)[C@@]1(C)CCC(=O)C(C)(C)[C@@H]1C[C@@H]3O (some centres unmarked); result = 103%
Structure (SMILES) = COc1ccc(-c2oc3cc(O)cc(O)c3c(=O)c2O)cc1; result = 81.4%

Block 2 — cell line: HuT78; technique: RNA-seq; tested at: concentration not given; relative to: untreated control; measurement: log2 fold change
Compound: CN1CC[C@H](c2c(O)cc(O)c3c(=O)cc(-c4ccccc4Cl)oc23)[C@H](O)C1
refers to = AGBL2; result = 1.11
refers to = AKAP5; result = 0.667
refers to = ACAD11; result = 0.733

Block 3 — observed: enzyme activity; mode: inhibitor; tested at: 10 µM; measurement: inhibition
Target: Calcium/calmodulin-dependent protein kinase type II subunit alpha (CAMK2A, Homo sapiens, UniProt Q9UQM7)
UniProt Q9UQM7, sequence (whole entry, looked up): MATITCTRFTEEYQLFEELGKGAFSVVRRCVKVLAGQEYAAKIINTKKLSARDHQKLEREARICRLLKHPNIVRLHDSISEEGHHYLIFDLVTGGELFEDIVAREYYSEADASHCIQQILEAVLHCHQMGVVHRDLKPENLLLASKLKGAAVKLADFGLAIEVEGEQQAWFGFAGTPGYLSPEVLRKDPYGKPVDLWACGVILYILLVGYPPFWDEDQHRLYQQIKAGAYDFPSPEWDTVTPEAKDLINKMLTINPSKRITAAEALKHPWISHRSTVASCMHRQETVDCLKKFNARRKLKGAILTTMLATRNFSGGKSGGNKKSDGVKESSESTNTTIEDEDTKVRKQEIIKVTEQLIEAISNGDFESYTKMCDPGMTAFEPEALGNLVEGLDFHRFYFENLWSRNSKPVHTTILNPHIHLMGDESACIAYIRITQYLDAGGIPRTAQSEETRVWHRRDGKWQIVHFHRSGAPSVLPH
SMILES = N[C@@H](CC(=O)N1CCc2c(nc(C(F)(F)F)nc2C(F)(F)F)C1)CN1CC(F)(F)CCC1=O; result = -8%
SMILES = COc1cc(/C=C/C(=O)OC[C@H]2O[C@H](O[C@]3(CO)O[C@H](CO)[C@@H](O)[C@@H]3OC(=O)/C=C/c3cc(OC)c(OC)c(OC)c3)[C@H](O)[C@@H](O)[C@@H]2O)cc(OC)c1O; result = -110%
SMILES = CCCCCCCC/C=C/CCCCCCCC(=O)OC[C@H]1O[C@@H](n2ccc(N)nc2=O)C(F)(F)[C@@H]1O; result = 0%
SMILES = CC(C)=CCC[C@](C)(O[C@@H]1O[C@H](CO[C@@H]2OC[C@H](O)[C@H](O)[C@H]2O)[C@@H](O)[C@H](O)[C@H]1O)[C@H]1CC[C@]2(C)[C@@H]1[C@H](O)C[C@@H]1[C@@]3(C)CC[C@H](O[C@@H]4O[C@H](CO)[C@@H](O)[C@H](O)[C@H]4O[C@@H]4O[C@H](CO)[C@@H](O)[C@H](O)[C@H]4O)C(C)(C)[C@@H]3CC[C@]12C; result = 21%
SMILES = COc1ccc(C(C)=O)cc1O; result = 8%
SMILES = CCCC[C@H](NC(C)=O)C(=O)N[C@H]1CC(=O)NCCCC[C@@H](C(=O)O)NC(=O)[C@H](Cc2c[nH]c3ccccc23)NC(=O)[C@H](CCCN=C(N)N)NC(=O)[C@@H](Cc2ccccc2)NC(=O)[C@H](Cc2cnc[nH]2)NC1=O; result = -9%
SMILES = COC(=O)c1c[nH]c2ccccc12; result = 31%
SMILES = COc1ccc(C(=O)/C=C/c2ccc(O)cc2)c(O)c1CC=C(C)C; result = -43%
SMILES = CC(=O)Oc1ccccc1C(=O)Nc1ncc([N+](=O)[O-])s1; result = -15%
SMILES = CC(=O)N(CC(O)CO)c1c(I)c(C(=O)NCCO)c(I)c(C(=O)NCC(O)CO)c1I (centres unmarked); result = -3%

Block 4 — technique: competition with immobilised ligand; tested at: 1 µM; measurement: remaining binding
SMILES: Cc1nc(N2CC[C@@H](O)C2)ncc1-c1cc(C(F)(F)F)cc2[nH]ncc12
target = FYN (Homo sapiens, UniProt P06241); observed = binding; result = 100%
target = MYLK3 (Homo sapiens, UniProt Q32MK0); observed = binding; result = 98%
target = SBK3 (Homo sapiens, UniProt P0C264); observed = binding; result = 100%
target = CSNK1G2 (Homo sapiens, UniProt P78368); observed = cell-free assay; result = 100%
target = GAK (Homo sapiens, UniProt O14976); observed = binding; result = 83%
target = STK32B (Homo sapiens, UniProt Q9NY57); observed = binding; result = 100%
target = FES (Homo sapiens, UniProt P07332); observed = cell-free assay; result = 100%
target = INSRR (Homo sapiens, UniProt P14616); observed = binding; result = 87%
target = PI4KB (Homo sapiens, UniProt Q9UBF8); observed = cell-free assay; result = 53%
target = OXSR1 (Homo sapiens, UniProt O95747); observed = binding; result = 67%
target = GRK1 (Homo sapiens, UniProt Q15835); observed = binding; result = 52%
target = STK32C (Homo sapiens, UniProt Q86UX6); observed = binding; result = 86%
target = SRPK1 (Homo sapiens, UniProt Q96SB4); observed = binding; result = 100%
target = CDK11B (Homo sapiens, UniProt P21127); observed = cell-free assay; result = 94%
target = PIP5K1A (Homo sapiens, UniProt Q99755); observed = cell-free assay; result = 86%
target = PIK3CB (Homo sapiens, UniProt P42338); observed = cell-free assay; result = 60%
target = MELK (Homo sapiens, UniProt Q14680); observed = binding; result = 100%
target = IGF1R (Homo sapiens, UniProt P08069); observed = cell-free assay; result = 100%
target = CDC42BPA (Homo sapiens, UniProt Q5VT25); observed = cell-free assay; result = 100%
target = Non-receptor tyrosine-protein kinase TYK2, JH1 (TYK2, Homo sapiens, UniProt P29597); observed = binding; result = 58%
target = TEC (Homo sapiens, UniProt P42680); observed = binding; result = 84%
target = PAK5 (Homo sapiens, UniProt Q9P286); observed = cell-free assay; result = 99%
target = LATS1 (Homo sapiens, UniProt O95835); observed = binding; result = 81%
target = Ribosomal protein S6 kinase alpha-5, C-terminal kinase domain (RPS6KA5, Homo sapiens, UniProt O75582); observed = binding; result = 81%
target = MAK (Homo sapiens, UniProt P20794); observed = binding; result = 100%

Block 5 — cell line: HaCaT; tested at: 100 µM; time: 36 h; measurement: viability
SMILES = Oc1c(I)cc(Cl)c2cccnc12; result = 5.7%
SMILES = N[C@@H](Cc1cc(I)c(Oc2cc(I)c(O)c(I)c2)c(I)c1)C(=O)O; result = 43%
SMILES = CC(C)n1c(/C=C/[C@H](O)C[C@H](O)CC(=O)O)c(-c2ccc(F)cc2)c2ccccc21 (racemic); result = 20.3%
SMILES = CC(=O)N(CC(O)CO)c1c(I)c(C(=O)NCC(O)CO)c(I)c(C(=O)NCC(O)CO)c1I (mixture of isomers); result = 96.7%
SMILES = C=C[C@H]1[C@H](O[C@@H]2O[C@H](CO)[C@@H](O)[C@H](O)[C@H]2O)OC=C2C(=O)OCC[C@]21O; result = 94.8%
SMILES = COc1nc(C)nc(Cl)c1N=C1NCCN1; result = 100%
SMILES = Cc1ccc(S(=O)(=O)NC(=O)NN2CCCCCC2)cc1; result = 20%
SMILES = O=c1[nH]c(=O)n([C@H]2C[C@H](O)[C@@H](CO)O2)cc1C(F)(F)F; result = 43.8%
SMILES = C/C(O)=C(\C#N)C(=O)Nc1ccc(C(F)(F)F)cc1; result = 62.6%

Repeated from above (block 1):
Structure (SMILES) = CC(=O)O[C@H]1C(=O)[C@@]2(C)[C@H]([C@H](OC(=O)c3ccccc3)[C@]3(O)C[C@H](OC(=O)[C@H](O)[C@@H](NC(=O)c4ccccc4)c4ccccc4)C(C)=C1C3(C)C)[C@]1(OC(C)=O)CO[C@@H]1C[C@@H]2O; result = 109%
Structure (SMILES) = CC(C)(O)[C@@H]1CC[C@](C)([C@H]2[C@@H](O)C[C@@]3(C)[C@@H]4C[C@H](O)[C@H]5C(C)(C)[C@@H](O)CC[C@@]56C[C@@]46CC[C@]23C)O1; result = 85.5%
Structure (SMILES) = CC(=O)O[C@H]1CC[C@]2(C)C3=C(CC[C@H]2C1(C)C)[C@]1(C)CC[C@H]([C@@H](CCC=C(C)C)C(=O)O)[C@@]1(C)CC3; result = 113%
Structure (SMILES) = C=C(CC[C@@H](C(=O)O)[C@H]1[C@H](O)C[C@@]2(C)C3=CC[C@@H](C(=C)C)[C@](C)(CCC(=O)O)C3=CC[C@]12C)C(C)C; result = 117%
Structure (SMILES) = COc1cc2c(=O)c(-c3ccc(O)cc3)coc2cc1O; result = 85.3%
Structure (SMILES) = C/C(=C\C(=O)CC(C)C(=O)O)[C@H]1CC(=O)[C@@]2(C)C3=C(C(=O)C[C@]12C)[C@@]1(C)CCC(=O)C(C)(C)[C@@H]1C[C@@H]3O (some centres unmarked); result = 103%
Structure (SMILES) = COc1ccc(-c2oc3cc(O)cc(O)c3c(=O)c2O)cc1; result = 81.4%
